Measured values collected from several papers.
Lines come from different studies, so protocols differ. ± gives the spread as reported.
U2AF2: U2AF2 148-342 (Homo sapiens, UniProt P26368)
Chain of UniProt P26368 (whole entry, looked up): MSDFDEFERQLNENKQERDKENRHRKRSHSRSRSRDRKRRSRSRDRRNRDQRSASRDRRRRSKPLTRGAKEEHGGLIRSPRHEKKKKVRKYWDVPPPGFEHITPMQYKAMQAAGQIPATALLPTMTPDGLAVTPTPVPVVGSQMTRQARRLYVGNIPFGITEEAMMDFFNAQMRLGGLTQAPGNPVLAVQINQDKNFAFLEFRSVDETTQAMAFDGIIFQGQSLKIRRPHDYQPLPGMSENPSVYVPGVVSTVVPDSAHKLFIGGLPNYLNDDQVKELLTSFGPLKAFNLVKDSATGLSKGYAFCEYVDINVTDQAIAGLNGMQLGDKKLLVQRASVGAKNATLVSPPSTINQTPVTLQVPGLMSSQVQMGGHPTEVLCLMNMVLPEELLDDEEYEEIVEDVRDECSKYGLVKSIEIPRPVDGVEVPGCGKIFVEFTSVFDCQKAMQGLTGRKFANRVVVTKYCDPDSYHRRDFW
B1: human AHCYL1; sequence looked up; chain SMPDAMPLPGVGEELKQAKEIEDAEKYSFMATVTKAPKKQIQFADDMQEFTKFPTKTGRRSLSRSISQSSTDSYSSAASYTDSSDDEVSPREKQQTNSKGSSNFCVKNIKQAEFGRREIEIAEQDMSALISLRKRAQGEKPLAGAKIVGCTHITAQTAVLIETLCALGAQCRWSACNIYSTQNEVAAALAEAGVAVFAWKGESEDDFWWCIDRCVNMDGWQANMILDDGGDLTHWVYKKYPNVFKKIRGIVEESVTGVHRLYQLSKAGKLCVPAMNVNDSVTKQKFDNLYCCRESILDGLKRTTDVMFGGKQVVVCGYGEVGKGCCAALKALGAIVYITEIDPICALQACMDGFRVVKLNEVIRQVDVVITCTGNKNVVTREHLDRMKNSCIVCNMGHSNTEIDVTSLRTPELTWERVRSQVDHVIWPDGKRVVLLAEGRLLNLSCSTVPTFVLSITATTQALALIELYNAPEGRYKQDVYLLPKKMDEYVASLHLPSFDAHLTELTDDQAKYLGLNKNGPFKPNYYRY
B2: poly(rC)-binding protein 3, human; sequence looked up; chain MGEGDAFWAPSVLPHSTLSTLSHHPQPQFGRRMESKVSEGGLNVTLTIRLLMHGKEVGSIIGKKGETVKKMREESGARINISEGNCPERIVTITGPTDAIFKAFAMIAYKFEEDIINSMSNSPATSKPPVTLRLVVPASQCGSLIGKGGSKIKEIRESTGAQVQVAGDMLPNSTERAVTISGTPDAIIQCVKQICVVMLESPPKGATIPYRPKPASTPVIFAGGQAYTIQGQYAIPHPDQLTKLHQLAMQQTPFPPLGQTNPAFPGEKLPLHSSEEAQNLMGQSSGLDASPPASTHELTIPNDLIGCIIGRQGTKINEIRQMSGAQIKIANATEGSSERQITITGTPANISLAQYLINARLTSEVTGMGTL
Chain of UniProt P13393 (whole entry, looked up): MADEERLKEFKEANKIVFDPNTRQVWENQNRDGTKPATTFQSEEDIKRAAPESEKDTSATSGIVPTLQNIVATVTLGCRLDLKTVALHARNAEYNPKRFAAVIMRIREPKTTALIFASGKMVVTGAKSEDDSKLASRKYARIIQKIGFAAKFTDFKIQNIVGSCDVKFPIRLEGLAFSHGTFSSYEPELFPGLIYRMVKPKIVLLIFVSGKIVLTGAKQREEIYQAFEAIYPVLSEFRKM

| Substance | tested on | test | test system | setting | how to read | measurement | result |
| --- | --- | --- | --- | --- | --- | --- | --- |
| human FHL2 | CYB5R4 knockout human cells | PP4 interaction, 3xFLAG-PP4C IP-MS | – | concentration not given | reference: CYB5R4 KO over parental | log2 fold change | 4 |
| KSDPITSSY | Jurkat expressing engineered TCR | NFAT-eGFP reporter, fluorescence microscopy | peptide | concentration not given, HLA-A*01:01 on EL4 cells | – | GFP-positive cells | 0.508% |
| heparin | PC-12 cells | – | – | 100 µg/mL, with: NGF | – | cells with neurites | > 70% |
| ESDPIEDEY | Jurkat NFAT-eGFP expressing engineered TCR | NFAT reporter gene | peptide | concentration not given, HLA-A*01:01 presentation | – | GFP-positive cells | 9.05% |
| Peginesatide | UT7/EPO | tyrosine phosphorylation, LC-MS/MS phosphoproteomics, GluC, item: GAB3 tyrosine 560 | – | 10 nM, 15 min, with: 10 U/mL EPO | reference: vehicle | phosphorylation level | 7.2 fold |
| MTVCNASQRQAHAQATAVSL | H1155 lung large cell carcinoma | phage binding output/input | peptide | – | reference: control phage | selectivity ratio | 2.2 ± 1.4 |
| EIDPIGYNY | Jurkat expressing engineered TCR | NFAT-eGFP reporter, fluorescence microscopy | peptide | concentration not given, HLA-A*01:01 on EL4 cells | – | GFP-positive cells | 1.4% |
| colistin | Pseudomonas aeruginosa | – | clinical isolate RKI 81/10 | – | – | MIC | ≤ 1 µg/mL |
| GCAGUUAUU (ssRNA) | U2AF2 | sequencing of bound RNA | RNA | motif only | – | Kd | 2360 nM |
| QIDIIRLGY | Jurkat expressing engineered TCR | NFAT-eGFP reporter, fluorescence microscopy | peptide | concentration not given, HLA-A*01:01 on EL4 cells | – | GFP-positive cells | 0.464% |
| B1 (human AHCYL1) | CYB5R4 knockout human cells | PP4 interaction, 3xFLAG-PP4C IP-MS | – | concentration not given | reference: CYB5R4 KO over parental | log2 fold change | -0.95 |
| epoetin alfa | UT7/EPO | microarray, item: RAB11FIP1 (probe 219681_s_at) | – | 5 U/mL, 90 min, with: SCF 10 nM | reference: vehicle | mRNA level | 4.3 fold |
| B2 | CYB5R4 knockout human cells | PP4 interaction, 3xFLAG-PP4C IP-MS | – | concentration not given | reference: CYB5R4 KO over parental | log2 fold change | 0.79 |
| CUCCCUUGG (ssRNA) | U2AF2 | sequencing of bound RNA | RNA | motif only | – | Kd | 3480 nM |
| human epiplakin | CYB5R4 knockout human cells | PP4 interaction, 3xFLAG-PP4C IP-MS | – | concentration not given | reference: CYB5R4 KO over parental | log2 fold change | 0.71 |
| GAAGCGAGTACGGAGGTACCAGCTGGTCTCCGTAGTCAAGTCAATCGGTCC (dsDNA; 5'-amino-C6 primer) | SPT15 full length assumed (Saccharomyces cerevisiae, UniProt P13393) | array | double-stranded DNA, one strand shown | TBP alone | – | Kd | 1.5 ± 0.1 nM |

For quick reference, copied from above:
| Substance | tested on | test | test system | setting | how to read | measurement | result |
| --- | --- | --- | --- | --- | --- | --- | --- |
| B1 (human AHCYL1) | CYB5R4 knockout human cells | PP4 interaction, 3xFLAG-PP4C IP-MS | – | concentration not given | reference: CYB5R4 KO over parental | log2 fold change | -0.95 |
| Peginesatide | UT7/EPO | tyrosine phosphorylation, LC-MS/MS phosphoproteomics, GluC, item: GAB3 tyrosine 560 | – | 10 nM, 15 min, with: 10 U/mL EPO | reference: vehicle | phosphorylation level | 7.2 fold |
